# Measured values of several laboratories.
# Protocols differ between the studies behind these lines.
# Organism: Staphylococcus aureus
SMILES,test,test system,setting,MIC
CN[C@H](CC(C)C)C(=O)N[C@H]1C(=O)N[C@@H](CC(N)=O)C(=O)N[C@H]2C(=O)N[C@H]3C(=O)N[C@H](C(=O)N[C@H](C(=O)N[C@@H](CCCNC(=N)N)C(N)=O)c4cc(O)cc(O)c4-c4cc3ccc4O)[C@H](O)c3ccc(c(Cl)c3)Oc3cc2cc(c3O[C@@H]2O[C@H](CO)[C@@H](O)[C@H](O)[C@H]2O[C@H]2C[C@](C)(NCc3ccc(OCc4cn(CC(=O)N[C@H](C(=O)N[C@@H](CCN)C(=O)N[C@H]5CCNC(=O)[C@H]([C@@H](C)O)NC(=O)[C@H](CCN)NC(=O)[C@H](CCN)NC(=O)[C@H](CC(C)C)NC(=O)[C@@H](CC(C)C)NC(=O)[C@H](CCN)NC5=O)[C@@H](C)O)nn4)c(OC)c3)[C@H](O)[C@H](C)O2)Oc2ccc(cc2Cl)[C@H]1O,,VRSA 2 vanA,,> 46 µM
COc1ccc(CC2[NH2+]CCc3cc(OC)c(OC)cc32)cc1OC.[Cl][Fe-]([Cl])([Cl])[Cl] (stereo not shown),,,"24 h, 37 °C",> 1600 µM
N=C(N)NCCC[C@@H]1NC(=O)[C@H](CCCNC(=N)N)NC(=O)[C@@H](C(c2ccccc2)c2ccccc2)NC(=O)[C@H](Cc2c[nH]c3ccccc23)NC(=O)[C@@H](C(c2ccccc2)c2ccccc2)NC(=O)[C@@H](CCCNC(=N)N)NC(=O)[C@@H](CCCNC(=N)N)NC1=O,,"1195201, multidrug-resistant",,4 µg/mL
O=C(c1ccccc1O)c1[nH]c(Cl)c(Cl)c1-n1c(C(=O)c2ccccc2O)cc(Cl)c1Cl,microbial growth,ATCC29213 MSSA,,2 µM
CC(C)C[C@@H](NC(=O)[C@@H](CCCNC(=N)N)NC(=O)[C@H](N)CCCNC(=N)N)C(=O)N[C@H](CC(C)C)C(=O)N[C@H](CCCNC(=N)N)C(=O)N[C@H](CCCCN)C(=O)N[C@H](CC(C)C)C(=O)N[C@H](CCCCN)C(=O)NCC(=O)N[C@H](CCCCN)C(=O)N[C@H](CCCCN)C(=O)N[C@H](CC(C)C)C(=O)N[C@H](Cc1ccc(O)cc1)C(=O)N[C@H](CC(C)C)C(=O)N[C@H](Cc1ccc(O)cc1)C(=O)N[C@H](Cc1ccccc1)C(=O)N[C@H](CCCCN)C(=O)N[C@H](CC(C)C)C(=O)N[C@H](CCC(N)=O)C(=O)N[C@H](CC(C)C)C(=O)N[C@H](CC(C)C)C(=O)N[C@H](CCCCN)C(=O)N[C@H](CCCCN)C(N)=O,,"CCARM 3095, methicillin-resistant, Mueller-Hinton broth",24 h,4 µM
CC[C@H](C)[C@H](NC(=O)[C@@H](CCCNC(=N)N)NC(=O)[C@H](CCCNC(=N)N)NC(=O)[C@@H]1CCCN1C(=O)[C@@H]1CCCN1C(=O)[C@H](CCCNC(=N)N)NC(=O)[C@@H]1CCCN1C(=O)[C@H](CCCNC(=N)N)NC(=O)[C@@H]1CCCN1C(=O)[C@H](CC(C)C)NC(=O)[C@H](Cc1ccc(O)cc1)NC(=O)[C@@H]1CCCN1C(=O)[C@H](Cc1ccccc1)NC(=O)[C@H](CCCCN)NC(=O)[C@H](CC(=O)O)NC(=O)[C@@H](N)C(C)C)C(=O)N[C@@H](Cc1ccc(O)cc1)C(=O)N[C@@H](CC(N)=O)C(=O)N[C@H](CCCNC(=N)N)C(N)=O,broth microdilution,DSM 6247,"18 h, 37 °C, 25% MHB2",> 128 µg/mL
CC[C@H](C)[C@@H]1NC(=O)[C@H](CO)NC(=O)C(C)(CCCCN)NC(=O)[C@@H]2CSSC[C@@H](C(=O)N[C@@H](Cc3ccc(O)cc3)C(N)=O)NC(=O)[C@H](CCCCN)NC(=O)[C@@H]3CSSC[C@H](NC(=O)[C@H](CCCNC(=N)N)NC(=O)C(C)(CC(C)C)NC(=O)[C@H](CC(=O)O)NC(=O)[C@H](CC(=O)O)NC(=O)[C@H](CCC(=O)O)NC(=O)[C@H](CC(N)=O)NC(=O)[C@H](Cc4c[nH]c5ccccc45)NC(=O)[C@@H]4CCCN4C(=O)CNC(=O)[C@H](CC(N)=O)NC(=O)[C@@H](NC(=O)CNC(=O)[C@H](Cc4ccccc4)NC(=O)CN)CSSC[C@H](NC(=O)[C@H](Cc4ccc(O)cc4)NC(=O)CNC(=O)CNC(=O)[C@H](CCCCN)NC(=O)[C@H](Cc4ccc(O)cc4)NC(=O)CNC(=O)[C@H](CCCCN)NC1=O)C(=O)N[C@@H](C)C(=O)N[C@@H](CCCCN)C(=O)NCC(=O)NCC(=O)N[C@@H](Cc1ccccc1)C(=O)N[C@@H](C(C)C)C(=O)N3)C(=O)N[C@@H](Cc1c[nH]cn1)C(=O)NC(C)(C)C(=O)N[C@@H](Cc1c[nH]cn1)C(=O)N2 (stereo partly shown),,"469, methicillin-resistant mecA, cation-adjusted Mueller Hinton broth","18 h, 37 °C",0.5 µM
CN[C@H](CC(C)C)C(=O)N[C@H]1C(=O)N[C@@H](CC(N)=O)C(=O)N[C@H]2C(=O)N[C@H]3C(=O)N[C@H](C(=O)N[C@H](C(=O)O)c4cc(O)cc(O)c4-c4cc3ccc4O)[C@H](O)c3ccc(c(Cl)c3)Oc3cc2cc(c3O[C@@H]2O[C@H](CO)[C@@H](O)[C@H](O)[C@H]2O[C@H]2C[C@](C)(NCc3ccc(OCc4cn(CC(=O)N[C@H](C(=O)N[C@@H](CCN)C(=O)N[C@H]5CCNC(=O)[C@H]([C@@H](C)O)NC(=O)[C@H](CCN)NC(=O)[C@H](CCN)NC(=O)[C@H](CC(C)C)NC(=O)[C@@H](CC(C)C)NC(=O)[C@H](CCN)NC5=O)[C@@H](C)O)nn4)c(OC)c3)[C@H](O)[C@H](C)O2)Oc2ccc(cc2Cl)[C@H]1O,,VRSA 2 vanA,,24 µM
CC[C@H](C)[C@H](NC(=O)[C@H](CCCNC(=N)N)NC(=O)[C@@H](NC(=O)[C@@H]1CCCN1C(=O)[C@H](CCCNC(=N)N)NC(=O)[C@@H](NC(=O)[C@@H]1CCCN1C(=O)[C@H](CC(C)C)NC(=O)[C@H](CC(C)C)NC(=O)CNC(=O)[C@H](Cc1c[nH]cn1)NC(=O)[C@@H]1CCCN1C(=O)CNC(=O)[C@H](Cc1ccccc1)NC(=O)[C@H](CC(=O)O)NC(=O)[C@H](Cc1c[nH]c2ccccc12)NC(=O)[C@H](C)NC(=O)[C@@H](NC(=O)[C@H](C)N)[C@@H](C)O)[C@@H](C)CC)[C@@H](C)CC)C(=O)N[C@@H](CCCNC(=N)N)C(=O)N1CCC[C@H]1C(=O)N[C@@H](CC(C)C)C(=O)N[C@@H](CS)C(=O)NCC(=O)N[C@@H](CCCCN)C(=O)N[C@@H](CC(=O)O)C(=O)O,broth microdilution,"ATCC 29213, Mueller-Hinton broth","16 to 20 h, 37 °C",1120 µg/mL
CC(C)C[C@H](NC(=O)[C@@H](NC(=O)[C@H](CCCNC(=N)N)NC(=O)[C@H](CCC(N)=O)NC(=O)[C@H](Cc1ccccc1)NC(=O)[C@H](Cc1ccc(O)cc1)NC(=O)[C@H](CC(N)=O)NC(=O)[C@H](Cc1c[nH]c2ccccc12)NC(=O)[C@@H](NC(=O)[C@H](CCCNC(=N)N)NC(=O)[C@H](CCCCN)NC(=O)[C@@H](N)Cc1ccccc1)C(C)C)C(C)C)C(=O)N[C@H](C(=O)N[C@@H](CCCCN)C(=O)N[C@@H](CCCCN)C(=O)N[C@@H](Cc1ccc(O)cc1)C(N)=O)C(C)C,broth dilution,"ATCC 25923, Mueller-Hinton broth","24 h, 37 °C",100 µM
CC1COC2=C1C(=O)C(=O)c1c2ccc2c1C(OC(=O)CNC(=O)CN)CCC2(C)C (mixture of isomers),,GDMCC 1.122,48 h,31 µM
CC[C@H](C)[C@H](NC(=O)[C@H](Cc1c[nH]c2ccccc12)NC(=O)[C@H](CCCCN)NC(=O)[C@H](CC(C)C)NC(=O)[C@@H](NC(=O)[C@@H](NC(=O)CNC(=O)[C@H](CCCCN)NC(=O)[C@H](Cc1c[nH]cn1)NC(=O)[C@H](CCCCN)NC(=O)[C@H](Cc1c[nH]c2ccccc12)NC(=O)[C@H](C)NC(=O)[C@H](CC(C)C)NC(=O)[C@H](CO)NC(=O)[C@@H](NC(=O)[C@H](Cc1ccc(O)cc1)NC(=O)[C@H](CCCCN)NC(=O)[C@H](CCC(N)=O)NC(=O)CNC(=O)[C@H](CCCCN)NC(=O)[C@@H](NC(=O)[C@H](C)NC(=O)[C@H](CC(C)C)NC(=O)[C@H](Cc1ccccc1)NC(=O)[C@H](CCC(N)=O)NC(=O)[C@@H](NC(=O)[C@H](CC(C)C)NC(=O)[C@H](CCCCN)NC(=O)[C@H](CCSC)NC(=O)[C@H](Cc1ccccc1)NC(=O)[C@H](C)NC(=O)[C@H](C)NC(=O)[C@@H](N)CCSC)[C@@H](C)CC)[C@@H](C)O)C(C)C)[C@@H](C)O)[C@@H](C)CC)C(=O)N[C@@H](CC(N)=O)C(N)=O,,EMRSA 12817,"24 h, 37 °C",32 µg/mL
CN[C@@H]1[C@H](O)[C@H](NC)[C@H]2O[C@]3(O)[C@H](O[C@@H]2[C@H]1O)O[C@H](C)C[C@H]3NC(=O)CNC(C)(C)C,"microbial growth, broth dilution",8325,,200 µg/mL

# Repeated from above:
SMILES,test,test system,setting,MIC
CC[C@H](C)[C@H](NC(=O)[C@H](CCCNC(=N)N)NC(=O)[C@@H](NC(=O)[C@@H]1CCCN1C(=O)[C@H](CCCNC(=N)N)NC(=O)[C@@H](NC(=O)[C@@H]1CCCN1C(=O)[C@H](CC(C)C)NC(=O)[C@H](CC(C)C)NC(=O)CNC(=O)[C@H](Cc1c[nH]cn1)NC(=O)[C@@H]1CCCN1C(=O)CNC(=O)[C@H](Cc1ccccc1)NC(=O)[C@H](CC(=O)O)NC(=O)[C@H](Cc1c[nH]c2ccccc12)NC(=O)[C@H](C)NC(=O)[C@@H](NC(=O)[C@H](C)N)[C@@H](C)O)[C@@H](C)CC)[C@@H](C)CC)C(=O)N[C@@H](CCCNC(=N)N)C(=O)N1CCC[C@H]1C(=O)N[C@@H](CC(C)C)C(=O)N[C@@H](CS)C(=O)NCC(=O)N[C@@H](CCCCN)C(=O)N[C@@H](CC(=O)O)C(=O)O,broth microdilution,"ATCC 29213, Mueller-Hinton broth","16 to 20 h, 37 °C",1120 µg/mL
